Results from different studies.
A part holds a random share of what one study measured.

Block 1
Target: Interferon regulatory factor 5, full length, phosphomimetic (IRF5, Homo sapiens, UniProt Q13568-2, residues 1-514, S451D/S453D/S456D/S462D)
Technique: protein-binding microarray
Molecule type: double-stranded DNA, one strand shown
Sample: in vitro
Tested at: 940 nM top
Setting: 60-bp whole probe
Added: salmon DNA 0.4 mg/ml
Reference: random background probes
Reading: higher = stronger binding
Constant ends, left off below: GCCTAGCAC … GTCTTGATTCGCTTGACGCTGCTG
| Strand | fitted relative affinity |
| --- | --- |
| TCATATATATTGTTAGTACTGTGCTAG | 0.307 z-score |
| TTAGATTACAGACTGGATTAGTGCTAG | -0.411 z-score |
| GTGATTTCAGTTTTCTTTTCGTGCTAG | 1.9 z-score |
| GTGAGTCCCACATCTCTGTCCGTGCTA | 0.584 z-score |
| TTCCAATTCTCTTTTCACTTGTGCTAG | 2.86 z-score |
| TTAGGACTGGGTCTCGGTTTGTGCTAG | 1.23 z-score |
| GACGGTTCCGGATTCGGGACGTGCTAG | 0.817 z-score |
| ACTAATTTTCATTTTCCAAAGTGCTAG | 1.4 z-score |
| GACTGACTGGGTTTCGGGACGTGCTAG | 2.86 z-score |
| CTAGGTATCGACACTGGGTTAGTGCTA | 4.04 z-score |
| TCACTCGTCTCTATCAAACTGTGCTAG | 1.44 z-score |

Block 2
Target: Histone acetyltransferase KAT6A, winged helix 2, GST fusion (KAT6A, Homo sapiens, UniProt Q92794, residues 85-181)
Technique: protein binding microarray
Molecule type: double-stranded DNA, one strand shown
Sample: in vitro
Tested at: not given
Setting: 8-mer, flanks averaged, mean of 2 arrays, mostly near background
Reference: not given
Reading: higher = stronger binding
Construct (chain): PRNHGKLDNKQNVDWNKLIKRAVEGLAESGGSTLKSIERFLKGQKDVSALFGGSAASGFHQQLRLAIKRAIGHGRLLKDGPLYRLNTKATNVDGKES
| Strand | E-score |
| --- | --- |
| CACACGCA | 0.0899 |
| AAGTAGGG | -0.0434 |
| GATTTCGA | 0.0121 |
| CCTCATGA | 0.0213 |
| TATAACAA | 0.0649 |
| GCGAAGTA | -0.00277 |
| GGCCTGTA | -0.178 |
| ATTTTCCC | 0.0552 |
| GAAACGAA | 0.041 |
| TGTGGCAA | 0.111 |
| ATTCCTGA | -0.0924 |
| GCCCTTGA | 0.0438 |
| GAAATACC | -0.0407 |

Block 3
Target: Sal-like protein 4, full length isoform A (SALL4, Homo sapiens, UniProt Q9UJQ4, residues 1-1053)
Chain of UniProt Q9UJQ4 (whole entry, looked up): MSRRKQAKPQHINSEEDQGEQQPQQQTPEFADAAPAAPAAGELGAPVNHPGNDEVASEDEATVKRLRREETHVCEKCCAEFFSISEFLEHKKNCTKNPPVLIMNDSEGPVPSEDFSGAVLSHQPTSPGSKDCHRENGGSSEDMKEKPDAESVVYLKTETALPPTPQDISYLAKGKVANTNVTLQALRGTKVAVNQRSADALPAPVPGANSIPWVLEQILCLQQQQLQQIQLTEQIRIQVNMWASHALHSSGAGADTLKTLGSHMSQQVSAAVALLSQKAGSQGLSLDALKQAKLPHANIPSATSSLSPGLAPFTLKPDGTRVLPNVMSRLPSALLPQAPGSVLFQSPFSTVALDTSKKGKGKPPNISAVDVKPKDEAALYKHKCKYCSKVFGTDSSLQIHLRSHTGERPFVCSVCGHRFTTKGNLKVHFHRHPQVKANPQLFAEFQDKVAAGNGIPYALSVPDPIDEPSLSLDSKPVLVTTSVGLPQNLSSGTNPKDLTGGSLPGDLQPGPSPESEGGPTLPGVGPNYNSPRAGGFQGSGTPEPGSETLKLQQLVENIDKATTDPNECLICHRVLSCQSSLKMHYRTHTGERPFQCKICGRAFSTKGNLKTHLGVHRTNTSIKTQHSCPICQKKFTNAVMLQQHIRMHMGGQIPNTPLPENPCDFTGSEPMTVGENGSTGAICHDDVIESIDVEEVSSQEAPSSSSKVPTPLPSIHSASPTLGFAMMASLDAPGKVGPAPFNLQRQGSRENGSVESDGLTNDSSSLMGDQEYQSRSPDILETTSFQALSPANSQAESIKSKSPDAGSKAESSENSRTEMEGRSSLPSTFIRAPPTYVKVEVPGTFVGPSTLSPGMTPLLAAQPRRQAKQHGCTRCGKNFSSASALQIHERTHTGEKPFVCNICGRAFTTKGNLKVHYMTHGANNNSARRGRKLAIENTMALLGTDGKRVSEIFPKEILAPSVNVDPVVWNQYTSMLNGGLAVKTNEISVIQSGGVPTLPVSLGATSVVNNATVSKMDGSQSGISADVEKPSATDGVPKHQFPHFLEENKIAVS
Technique: universal PBM
Molecule type: double-stranded DNA, one strand shown
Sample: in vitro
Tested at: 600 nM
Setting: 8-mer, flanks averaged, mean of replicates
Reading: higher = stronger binding
| Strand | E-score |
| --- | --- |
| CGATGTGC | -0.199 |
| GCTGATGA | 0.0719 |
| AATAAGAT | 0.26 |
| ACCTTGTG | -0.0972 |
| ACGGTGGA | -0.216 |
| ACTTAAGG | 0.0446 |
| ATAGAAAA | 0.203 |
| GCCCCCCA | -0.404 |
| TAGGTCCA | 0.0808 |
| AACTAACC | 0.108 |

Further values, each from its own experiment
| Substance | target | test | test system | setting | how to read | quantity | result |
| --- | --- | --- | --- | --- | --- | --- | --- |
| PhoQ, residues 284 288 289 292 302 303 SLANIV | PhoP, residues 12 14 15 18 19 AQCLL (Escherichia coli, UniProt P23836) | Sort-seq, item: YFP reporter | E. coli | PhoQ-PhoP variant library, added: 10 µM Mg2+ | reference: high Mg2+ state, higher = stronger signaling | fold induction | 4.15 |

Excerpt of the above (block 1):
| Strand | fitted relative affinity |
| --- | --- |
| TTCCAATTCTCTTTTCACTTGTGCTAG | 2.86 z-score |
| TTAGGACTGGGTCTCGGTTTGTGCTAG | 1.23 z-score |
| GACGGTTCCGGATTCGGGACGTGCTAG | 0.817 z-score |
| ACTAATTTTCATTTTCCAAAGTGCTAG | 1.4 z-score |
| GACTGACTGGGTTTCGGGACGTGCTAG | 2.86 z-score |
| CTAGGTATCGACACTGGGTTAGTGCTA | 4.04 z-score |
